Published values collected from several papers.
Each numbered part is a random draw from the data of one study; scales do not carry over between parts. Substitutions count along the parent as printed.

Block 1
Target: Interferon regulatory factor 7, full length, phosphomimetic (IRF7, Homo sapiens, UniProt Q92985, residues 1-503, S471D/S472D/S475D/S476D/S477D/S483D/S484D/S487D)
Technique: protein-binding microarray
Molecule type: double-stranded DNA, one strand shown
Sample: in vitro
Concentration: 2200 nM top
Notes: 60-bp whole probe
Added: salmon DNA 0.4 mg/ml
Reference: random background probes
Reading: higher = stronger binding
All sequences stand within: GCCTAGCAC … GTCTTGATTCGCTTGACGCTGCTG
Construct (chain): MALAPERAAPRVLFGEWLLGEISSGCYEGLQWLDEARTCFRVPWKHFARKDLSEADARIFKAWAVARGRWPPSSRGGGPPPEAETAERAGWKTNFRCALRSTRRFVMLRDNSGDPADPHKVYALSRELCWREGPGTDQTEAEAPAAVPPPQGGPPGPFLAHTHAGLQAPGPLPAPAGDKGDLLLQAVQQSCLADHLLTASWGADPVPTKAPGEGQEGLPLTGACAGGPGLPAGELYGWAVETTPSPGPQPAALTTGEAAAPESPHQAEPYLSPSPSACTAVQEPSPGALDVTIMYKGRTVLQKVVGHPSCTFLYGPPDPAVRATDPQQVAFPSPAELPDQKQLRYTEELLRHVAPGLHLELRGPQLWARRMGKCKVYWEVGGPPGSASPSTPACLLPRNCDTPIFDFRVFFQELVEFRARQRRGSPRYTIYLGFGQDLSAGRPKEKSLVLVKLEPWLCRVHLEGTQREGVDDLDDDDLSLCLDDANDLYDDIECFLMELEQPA
Strand | fitted relative affinity [z-score]
TTAGGTATCGGACTTGGTTAGTGCTAG | 0.327
TTAGGTTTCCTACTGCTTTAGTGCTAG | 1.29
TTAGGACTGGACTTTAGGTTAGTGCTA | -0.674
TCAGTTCTCCCTTTCAGTTTGTGCTAG | 4.54
GACGAACTGCGTTTCGAGACGTGCTAG | 1.13
TTAAAAAAAAAAAACTGTAACGTGCTA | -2.23
TCACCTTGATGTCTGGGACTGTGCTAG | 0.792
GTCGGACTGGGGACTGGGGACGTGCTA | -0.459
GAGGGACTGCTACTGCTGACGTGCTAG | -0.681
TTCCATTTCTGTTTTTGCTTGTGCTAG | 4.65
GTTGCTCTCTCACCACCTTCGTGCTAG | 2.03
GACGGTTTCGGTTCCGCGACGTGCTAG | 11.5
TTAGACATCGGGTATCGATTAGTGCTA | -0.0603
GACGGTTTCGGGACAGGGGACGTGCTA | 4.37
ATGCCTTTCGTCAAGAAGACGTGCTAG | 1

Block 2
Target: CREBL2, bZIP domain (human)
Technique: DHFR protein complementation
Sample: yeast
Notes: single substitutions, most at no-binding floor
Reference: wild-type JUN-FOS pair
Reading: higher = stronger binding
Starting sequence: JUN, bZIP domain (human); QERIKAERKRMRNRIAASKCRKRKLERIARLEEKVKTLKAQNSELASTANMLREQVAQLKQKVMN; partner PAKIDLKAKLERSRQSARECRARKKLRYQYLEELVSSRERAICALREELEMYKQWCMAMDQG
Change | binding fitness [natural log]
A46F | -1.54
L38Y | -1.56
I28L | -1.55
E44C | -1.26
A57G | -1.45
R53V | -1.51
E44L | -1.53
A29G | -1.46
E54N | -1.51
A57K | -1.46

Block 3
Target: CCND3, cyclin fold, Cln2 fusion (human)
Technique: yeast growth competition, sequencing
Sample: yeast
Notes: weak parent motif
Reference: not given
Reading: higher = stronger binding
Starting sequence: RBL2 docking peptide (human); STTRRRLFVENDS; partner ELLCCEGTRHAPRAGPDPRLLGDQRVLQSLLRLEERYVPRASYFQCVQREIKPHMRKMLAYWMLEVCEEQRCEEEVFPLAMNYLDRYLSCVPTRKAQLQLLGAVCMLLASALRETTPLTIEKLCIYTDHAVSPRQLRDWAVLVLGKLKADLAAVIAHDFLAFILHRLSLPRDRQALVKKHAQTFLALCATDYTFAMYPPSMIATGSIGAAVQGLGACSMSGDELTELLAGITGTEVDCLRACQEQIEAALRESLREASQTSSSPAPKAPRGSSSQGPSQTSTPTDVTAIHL
Change | normalised enrichment score
R6H | 0.0774
D12K | 0.155
S13I | 0.245
R6V | 0.185
V9F | 0.209
R6Y | 0.0316
N11R | 0.156
S13R | 0.215
S1P | 0.0912
E10A | 0.108
L7R | 0.128
R5M | 0.159
S13T | 0.134
N11L | 0.142
R4L | 0.253
T2P | 0.124
E10Q | 0.0992
F8S | 0.172
R5Q | 0.208
V9Q | 0.0989
R6A | 0.134
D12W | 0.0848
S13G | 0.164
S13Q | 0.0109
R6C | 0.143

Block 4
Target: Histone acetyltransferase KAT6A, winged helix 2, GST fusion (KAT6A, Homo sapiens, UniProt Q92794, residues 85-181)
Technique: protein binding microarray
Molecule type: double-stranded DNA, one strand shown
Sample: in vitro
Concentration: not given
Notes: 8-mer, flanks averaged, mean of 2 arrays, mostly near background
Reference: not given
Reading: higher = stronger binding
Construct (chain): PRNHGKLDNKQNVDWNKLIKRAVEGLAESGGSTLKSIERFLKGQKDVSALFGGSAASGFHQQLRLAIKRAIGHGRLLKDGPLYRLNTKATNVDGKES
Strand | E-score
AGCTTTTC | -0.123
CGTATACC | -0.134
GATGAATA | 0.0846
GGAAAGCA | 0.117
GCCGTGAC | -0.023
ATACACAC | 0.0488
ATCATTGC | 0.00201
GTGAGCTA | -0.0516
AAAGACTA | -0.0932
TGAGAAAA | -0.00434
ACTTGCAT | -0.0783
CTCGAAAA | 0.113
GCACGCCC | 0.191
TCATGACA | 0.00733
CACCCCCA | -0.0649
CAGTAACG | -0.0822
GGGGTGGA | -0.0901
ATGTATAC | -0.00143
GCATTGGC | -0.0418
AGGTATCA | -0.0932
GGCGCGCA | 0.131
GACGCACC | 0.0712
CCAGGCGC | 0.133
CAGCCACC | 0.225
ATGCTCTC | -0.0545

Block 5
Target: ABI1, truncated, D143A, DHFR fusion (Arabidopsis thaliana)
Technique: DHFR PCA, deep sequencing
Sample: yeast
Notes: methotrexate growth selection, single substitutions
Added: (+)-ABA 4.8 µM
Reference: wild-type fitted maximum
Reading: higher = stronger binding
Starting sequence: PYL1, truncated, DHFR fusion (Arabidopsis thaliana); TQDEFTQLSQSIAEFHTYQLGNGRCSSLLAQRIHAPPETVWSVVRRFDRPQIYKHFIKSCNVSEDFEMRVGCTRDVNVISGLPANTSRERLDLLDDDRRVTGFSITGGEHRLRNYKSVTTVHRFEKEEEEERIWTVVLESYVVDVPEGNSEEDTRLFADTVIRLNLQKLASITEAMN
Change | relative binding score [%]
T135L | -6.56
A30C | 63.3
S171L | 63.6
S117C | -0.366
R123H | 72.3
Q31I | 26.4
S11H | 63.4
F15I | 11.1
G81S | 23.5
Q19W | 33
L156N | 58
I33V | 50.8

Block 6
Target: RING finger protein unkempt homolog, zinc fingers 1-6, GST-SBP tag (UNK, Homo sapiens, UniProt Q9C0B0, residues 30-357)
Technique: RNA Bind-n-Seq
Molecule type: RNA
Sample: in vitro
Concentration: not given
Notes: RNA with constant flanks, human and mouse sites, ends assumed
Reference: input RNA pool
Reading: higher = stronger binding
All sequences stand within: GGGAGUUCUACAGUCCGACGAUC … CAACAGAGGAUUGAGCAUCA
Residues (chain): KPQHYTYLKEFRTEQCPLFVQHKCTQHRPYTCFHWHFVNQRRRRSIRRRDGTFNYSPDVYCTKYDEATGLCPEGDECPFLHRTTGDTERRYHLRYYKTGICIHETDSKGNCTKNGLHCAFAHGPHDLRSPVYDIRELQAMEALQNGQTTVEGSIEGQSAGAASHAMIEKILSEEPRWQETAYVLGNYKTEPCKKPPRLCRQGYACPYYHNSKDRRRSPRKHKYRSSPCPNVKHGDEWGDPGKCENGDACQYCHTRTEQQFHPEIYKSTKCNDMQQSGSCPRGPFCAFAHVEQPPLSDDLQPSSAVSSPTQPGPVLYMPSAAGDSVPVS
Strand | bound/input enrichment [ratio]
CUCAGUGAUCAUACACGGAACUCUGCUGAAGGUACAGAAUAUUUCAAAAUGCUUGUAGAUGUUUUUGCUCCAGAAUUUCGAAGGCCAAAGAAUAUACAUCUCCGAAAUUUCUAUAUCAUU | 0.0959
GGAAAUCAGUCUGUAACACUGGCAAGUCUUAAGAUAGUCCCAUUUAGACUUUGCAGAUGCUGAACCUGGCUCUGUAACGCUGGGAAGUCUUAAGAUAGUCCUGUUUAGACUUUGCAAACC | 0.124
UCCCAUGACCAGAGGACUCUGAUCACUGGCAUGGCUUCUGGUAGCAUUGUAGCUUUUAAUAUAGAUUUUAAUCGGUGGCAUUAUGAGCAUCAGAACAGAUACUGAAGAUAAAGGAAGAAC | 9.13
AAGUCCACAUUUAGUUUUAGUAUGACAAAACCAUCUGAGAAGGAAUCUGAACAGCCAGCAAAAGCCACUUUUGCCUUUGGAGCUCAAACUAGUACUACAGCUGAUCAAGGUGCAGCAAAG | 1.16
UUACUACUUCAGGCUGUCAAUUCUCAUUGUUUCCCAGCAUUCCUUGCUAUUCCACCUACACAGUUUAAACUUGUUUUGGAUUCCAUCAUUUGGGCUUUCAAACAUACUAUGAGGAAUGUC | 0.138
AGCUUCUACAGAACCAGAACCUUGCAGGCAUUAAGUAAUGAGAAGAAGGCCAAGAAGGUACGUUUCUACCGCAAUGGGGACCGUUACUUCAAGGGGAUUGUGUACGCUGUUUCUUCUGAC | 0.101
AGAUUCAAACCUGUGGUACCAUGGCCUCAUGUUGAAGGAGUAGAAGUGGACUUAGAGUCUAUUAGAAGAAUAAACAAGGCCAAAAAUGAACAAGAGCACCAUGCUGGAGGAGAUUCCCAG | 4.18
GUAGGCUCUGUCCGUUCCCAUACCUCCAGCAGGGCCAGUGAGAAUCAGUCUCCCAGCAGUAGCAACUACUUCAGCCCCCGGGAGUCGACUGAUUUCUCCUCUACCUCCCAGGAUGCAUUU | 0.118
GGAGCAAAGGGGAUCCGCACGCUGCUCUUUGCUUUGAUGAUGUCCCUUCCUGCGUUGUUUAACAUCGGCCUCCUUCUUUUCCUGGUCAUGUUCAUCUACGCCAUCUUUGGGAUGUCCAAU | 0.128
UCUGUUCGAAGAUUGGACCCAGAAUACUGGAAGACUAUACUGAGUUGUAUAUAUGUUUUUAUAGUAUUUGGAUUUACAUCUUUCAUUAUGGUUAUAGUCCAUGAGCGAGUGCCUGACAUG | 0.24
UACAUUUUACACUGUUGGUUUGUAUUUUUGUAUGUUUAUGGUGUCUGCUUGCCUGUGUCUUUUAGUAAAAUAAGACUUUAAAAUUACUUAGCAUGCUAUUUAACAUUUUCUAAAAAUUAU | 3.15

Further values, each from its own experiment
Substance | target | test | system | conditions | scale | quantity | result
PhoQ, residues 284 288 289 292 302 303 GASLAW | PhoP, residues 12 14 15 18 19 GQALL (Escherichia coli, UniProt P23836) | Sort-seq, item: YFP reporter | E. coli | PhoQ-PhoP variant library, added: 10 µM Mg2+ | reference: high Mg2+ state, higher = stronger signaling | fold induction | 7.53

A few entries again (block 4):
Strand | E-score
AGCTTTTC | -0.123
CGTATACC | -0.134
GATGAATA | 0.0846
GGAAAGCA | 0.117
GCCGTGAC | -0.023
